# Measurements gathered from unrelated publications.
# Compare with care: the assays were run in different laboratories. Numbers after ± are the reported error.
SMILES,assay,test system,setting,how to read,measurement,result
COc1ccc(N=Nc2ccc(NC(=O)CCCCCCC(=O)NO)cc2)cc1,1H NMR,DMSO,irradiation 365 nm,,cis isomer content,97%
CC(C)C[C@@H](NC(=O)[C@@H](C)NC(=O)[C@@H](CCCCN)NC(=O)[C@H](N)CCCCN)C(=O)N[C@H](C)C(=O)N[C@H](CCCCN)C(=O)N[C@H](C)C(=O)N[C@H](CC(C)C)C(=O)N[C@H](CCCCN)C(=O)N[C@H](Cc1c[nH]cn1)C(=O)N[C@H](Cc1c[nH]c2ccccc12)C(=O)N[C@H](CC(C)C)C(=O)N1CCC[C@@H]1C(=O)N[C@H](C)C(=O)N[C@H](CC(C)C)C(=O)N[C@H](Cc1c[nH]cn1)C(=O)N[C@H](CCCCN)C(=O)N[C@H](CC(C)C)C(=O)N[C@H](C)C(=O)N[C@H](CCCCN)C(=O)N[C@H](C)C(=O)N[C@H](CC(C)C)C(=O)N[C@H](C)C(=O)N[C@H](CCCCN)C(=O)N[C@H](CCCCN)C(N)=O,haemolysis,human erythrocytes,"30 min, pH 7.4, 37 °C",,HC50,8.61 ± 0.35 µM
CN(C)C(CNC(=O)Nc1cc(C(F)(F)F)ccc1N1CCOCC1)c1ccncc1 (centres unmarked),,"mouse, serum","intraperitoneal, 240 mg/kg single dose",,amylase,908 U/L
CC(C)[C@H](NC(=O)CNC(=O)[C@H](CCC(N)=O)NC(=O)[C@H](C)N)C(=O)O,,human,"intravenous infusion, 90 mg/kg/h, 2 h infusion",,subjects with mild adverse events,66.7%
CC(=CCC(O)C(C)=Cc1csc(C)n1)CC=CC(C)C(O)C(C)C(=O)C(C)(C)C(O)CC(=O)O (centres unmarked),,"human, plasma","intravenous infusion, 8.5 mg/m2 KOS-1584, 3 h infusion, cycle 1",,AUC,39.5 ± 16.3 ng·h/mL
CC(C)C[C@H](NC(=O)[C@H](CCCCN)NC(=O)[C@H](CCC(=O)O)NC(=O)[C@H](C)NC(=O)[C@@H](NC(=O)[C@H](CCCCN)NC(=O)[C@H](CC(=O)O)NC(=O)[C@H](Cc1ccc(O)cc1)NC(=O)[C@H](Cc1ccccc1)NC(=O)[C@H](C)NC(=O)[C@H](CCCCN)NC(=O)[C@H](CC(C)C)NC(=O)[C@H](Cc1c[nH]c2ccccc12)NC(=O)[C@@H](N)CC(=O)O)C(C)C)C(=O)N[C@@H](CCCCN)C(=O)N[C@@H](CCC(=O)O)C(=O)N[C@@H](C)C(=O)N[C@@H](Cc1ccccc1)C(=O)N1CCC[C@H]1C(=O)N[C@@H](CC(=O)O)C(=O)N[C@@H](Cc1c[nH]c2ccccc12)C(=O)N[C@@H](C)C(=O)N[C@@H](CCCCN)C(=O)N[C@@H](C)C(=O)N[C@@H](C)C(=O)N[C@@H](Cc1ccc(O)cc1)C(=O)N[C@@H](CC(=O)O)C(=O)N[C@@H](CCCCN)C(=O)N[C@@H](C)C(=O)N[C@@H](C)C(=O)N[C@@H](CCC(=O)O)C(=O)N[C@@H](CCCCN)C(=O)N[C@@H](C)C(=O)N[C@@H](CCCCN)C(=O)N[C@@H](CCC(=O)O)C(=O)N[C@@H](C)C(=O)N[C@@H](C)C(=O)O,,"cynomolgus monkey male, plasma","intravenous infusion, 25 mg/kg every other day, day 27",,Cmax,470 µg/mL
CC(CCC(=O)NCC(=O)O)C1CCC2C3CCC4CC(OC5OC(C(=O)O)C(O)C(O)C5O)CCC4(C)C3CC(O)C12C (centres unmarked),,"human, T/C genotype, plasma","dose not given, geometric mean, sex-adjusted",,glucuronide to parent ratio,0.848
CCCC[C@H](NC(=O)CN1CCC(NC(=O)CN2CCC(NC(=O)CN3CCN(CC(=O)O)CCN(CC(=O)O)CCN(CC(=O)O)CC3)CC2)CC1)C(=O)N[C@H]1CC(=O)NCCCC[C@@H](C(N)=O)NC(=O)[C@H](Cc2c[nH]c3ccccc23)NC(=O)[C@H](CCCNC(=N)N)NC(=O)[C@@H](Cc2ccccc2)NC(=O)[C@H](Cc2c[nH]cn2)NC1=O [gallium-68 labelled],biodistribution,C57BL/6J mouse male tumour-bearing,"1 h post injection, unblocked",reference: tumour over bone,tumour to bone ratio,40.8 ± 5.2
COc1cc(C(=O)NCCOCCOCCOCCNC(=O)c2ccc([18F])nc2)ccc1NC(=O)C1NC(CC(C)(C)C)C(C#N)(c2ccc(Cl)cc2F)C1c1cccc(Cl)c1F (centres unmarked),,"athymic male mice, SJSA-1 xenograft",2 h,reference: tumour over muscle,tumour-to-tissue ratio,1.29 ± 0.45
COCCOCCOCCOc1ccc(/C=C/C2=[N+]3C(=C(c4cc(OC)cc(OC)c4)c4c(C)c(I)c(/C=C/c5ccc(OCCOCCOCCOC)cc5)n4[B-]3(F)F)C(C)=C2I)cc1,,dichloromethane,,reference: methylene blue,fluorescence quantum yield,0.24
CC[C@@H](C)[C@H](NC(=O)[C@H](C)NC(=O)[C@H](CCCCN)NC(=O)[C@H](CC(C)C)NC(=O)[C@H](C)NC(=O)[C@@H](NC(=O)[C@H](Cc1c[nH]cn1)NC(=O)[C@H](CC(C)C)NC(=O)[C@@H](NC(=O)[C@@H](NC(=O)[C@H](CCCCN)NC(=O)[C@H](CCCCN)NC(=O)[C@H](C)NC(=O)[C@H](CO)NC(=O)[C@H](CCCCN)NC(=O)[C@H](Cc1ccccc1)NC(=O)[C@@H](NC(=O)[C@H](CCCCN)NC(=O)[C@H](CC(C)C)NC(=O)[C@H](Cc1ccccc1)NC(=O)[C@H](CO)NC(=O)[C@H](CCCCN)NC(=O)[C@H](Cc1c[nH]c2ccccc12)NC(=O)[C@H](CCCCN)NC(C)=O)[C@@H](C)O)[C@@H](C)O)C(C)C)[C@@H](C)O)C(=O)N[C@@H](CO)C(=O)N[C@@H](CO)C(N)=O,RP-HPLC,Zorbax 300 SB-C8 column,65 °C,,retention time,16.3 min
N=C(N)NCc1ccc(C(=O)NCCCC[C@H](NC(=O)CCCCCCC(=O)NCCCC[C@H](NC(=O)N[C@@H](CCC(=O)O)C(=O)O)C(=O)O)C(=O)O)cc1[131I],,"SCID mouse, PC-3 xenografts, thyroid",21 h,,tissue uptake,0.42 ± 0.35 %ID/g
CSCC[C@@H]1NC(=O)[C@@H]2CSSC[C@H](NC(=O)[C@H](CO)NC(=O)[C@H](C)N)C(=O)N[C@@H](CCCNC(=N)N)C(=O)N[C@@H]([C@@H](C)O)C(=O)N3CCC[C@H]3C(=O)N[C@@H](CCCCN)C(=O)N[C@@H](CC(=O)O)C(=O)N[C@H]3CSSC[C@H](NC(=O)[C@H](CCCCN)NC(=O)[C@H](CCCNC(=N)N)NC(=O)[C@H](CC(N)=O)NC1=O)C(=O)N[C@@H](CCCCN)C(=O)N[C@H]1CSSC[C@H](NC(=O)[C@@H]4CCCN4C(=O)[C@H](CC(=O)O)NC(=O)[C@H](C)NC3=O)C(=O)N[C@@H](C)C(=O)N[C@@H](CCCCN)C(=O)N[C@@H](CCC(=O)O)C(=O)N[C@@H]([C@@H](C)O)C(=O)NCC(=O)N[C@@H](CSSC[C@@H](C(N)=O)NC(=O)[C@H](CCCNC(=N)N)NC(=O)[C@H](CC(N)=O)NC1=O)C(=O)N1CCC[C@H]1C(=O)N[C@@H](Cc1ccc(O)cc1)C(=O)NCC(=O)N[C@@H](CCCCN)C(=O)N2,,"DA rat, pristane-induced arthritis, serum","subcutaneous, 0.1 mg/kg every other day, end of 21-day trial",,total protein,4.34 g/dL
COC(=O)C[C@H](NC(=O)[C@H](C)NC(=O)[C@@H](NC(=O)[C@H](CC(=O)OC)NC(=O)[C@@H](NC(=O)c1ccc2ccccc2n1)C(C)C)C(C)C)C(=O)COc1c(F)cccc1F,,rat pups,"1 mg/kg, 1 h",,PaO2,69.8 ± 2.24 mmHg
CN[C@](C)(C[18F])C(=O)O,,"SCID mouse MDA-MB-468 xenograft, heart",60 min post injection,,tissue uptake,2.7 ± 0.8 %ID/g
CC(C)[C@H](NC(=O)CNC(=O)[C@H](CCC(N)=O)NC(=O)[C@H](C)N)C(=O)O,,healthy male volunteers,"intravenous, 15 mg/kg/h, 2 h, added: LPS 2 ng/kg",,subjects with severe AE,0%
CCCCCCCC/C=C\CCCCCCCCOP(O)(O)=S.N,,"mouse, male, irradiated","subcutaneous, single dose 24 h after irradiation, added: 15.6 Gy partial-body irradiation",,CL/F,9.68 mL/min/kg
NC(=O)[C@@H](Cc1ccccc1)N[11C](=O)OCc1ccccc1,"binding, dynamic PET","Wistar rat, male, brain","intravenous, 3 min, added: self-blocking, 3 µmol/kg unlabelled analogue, 3 min before",,SUV max,1.7
CCCCCCCCC1(CCCCCCCC)c2cc(-c3cc4[n+]5c(c3)-c3cccc[n+]3[Ir-3]536([c]5c(c(C)cc(C)c5-c5cccc[n+]53)-c3cccc[n+]36)[n+]3ccccc3-4)ccc2-c2ccc(-c3cc4[n+]5c(c3)-c3cccc[n+]3[Ir-3]536([c]5c(c(C)cc(C)c5-c5cccc[n+]53)-c3cccc[n+]36)[n+]3ccccc3-4)cc21.F[P-](F)(F)(F)(F)F.F[P-](F)(F)(F)(F)F.F[P-](F)(F)(F)(F)F.F[P-](F)(F)(F)(F)F,,acetonitrile,,,singlet oxygen quantum yield,4%
CC1=C(/C=C/C(=O)N2CCN(C(N)=O)CC2)C(C)(C)CCC1,,rat,,,tolerability,not toxic
[2H]C([2H])([2H])C([2H])([2H])C([2H])([2H])OC(C(=O)OC1CCNCC1)(c1ccccc1)c1ccccc1,measured: any,healthy Japanese male,"oral, 8 mg once daily, 16 days",,adverse drug reactions,0%
CC[C@H](C)[C@H](NC(=O)[C@H](C)NC(=O)CNC(=O)[C@@H](N)CCSC)C(=O)N[C@@H](C)C(=O)N[C@@H](CCCCN)C(=O)N[C@@H](CC(C)C)C(=O)N[C@H](C(=O)N[C@@H](C)C(=O)N[C@@H](CCCCN)C(=O)N[C@@H](Cc1ccccc1)C(=O)NCC(=O)N[C@@H](Cc1c[nH]c2ccccc12)C(=O)N1CCC[C@H]1C(=O)N[C@@H](CCCNC(=N)N)C(=O)N[C@H](C(=O)N[C@@H](CCCCN)C(=O)N[C@@H](CCCCN)C(=O)N[C@@H](Cc1ccccc1)C(=O)N[C@@H](Cc1ccc(O)cc1)C(=O)N[C@@H](CCCCN)C(=O)N[C@@H](CCC(N)=O)C(=O)N[C@H](C(=O)N[C@@H](CCSC)C(=O)N[C@@H](CCC(N)=O)C(=O)N[C@@H](Cc1ccccc1)C(=O)N[C@H](C(=O)NCC(=O)N[C@@H](CCC(N)=O)C(=O)NCC(=O)N[C@@H](Cc1c[nH]c2ccccc12)C(=O)N[C@H](C(=O)N[C@H](C(=O)N[C@@H](CC(=O)O)C(=O)N[C@@H](CCC(N)=O)C(=O)N[C@H](C(=O)N[C@@H](CCC(=O)O)C(=O)N[C@@H](CCCCN)C(=O)N[C@@H](Cc1c[nH]c2ccccc12)C(=O)N[C@@H](CC(C)C)C(=O)N[C@@H](CCCCN)C(=O)N[C@@H](CCCNC(=N)N)C(=O)N[C@@H](Cc1c[nH]cn1)C(=O)O)[C@@H](C)CC)[C@@H](C)CC)[C@@H](C)O)[C@@H](C)CC)[C@@H](C)CC)[C@@H](C)CC)C(C)C,"thermal unfolding, far-UV CD",10 mM sodium phosphate,"5-20 µM, pH 7.2",,Tm,47.6 ± 0.3 °C
O=C([O-])C[N+]12CC(=O)[O][Re-2]1[O]P(=O)([O-])C2.[C-]#[O+].[C-]#[O+].[C-]#[O+] (centres unmarked),HPLC,aqueous solution,"1 d, pH 8, room temperature",,isomer fraction at equilibrium,62%
